Results pooled from the literature.
Protocols differ between the studies behind these lines. ± marks the error that the study gave.

Structure (SMILES) | target or system | test | system | setting | how to read | quantity | value
CCc1cc(C(=O)NC)c2nccc(N3CCc4c(cc(Cn5ccnc5)cc4-c4cn(C)nc4C(F)(F)F)C3=O)c2c1 |  |  | Sprague Dawley rat | oral, 100 mg/kg twice daily, 7 days | baseline: vehicle | brain weight change | 0.58%
CN1CCN(CCCCN2C(=O)CN(/N=C/c3ccc(-c4ccc(Cl)cc4)o3)C2=O)CC1 | THP-1 | pyroptotic LDH release |  | 2 µM, 40 min, added: LPS then nigericin |  | inhibition | 4.6%
Cc1ccc([C@@H]2O[C@H](CO)[C@@H](O)[C@H](O)[C@H]2O)cc1Cc1ccc(-c2ccc(F)cc2)s1 |  |  | Japanese type 2 diabetes patients | 25 mg, day 17, 24 h urine collection | baseline: baseline | urinary magnesium excretion change | 19.4 mg
C=CC(=O)Nc1cc(Nc2nccc(-c3cn(C)c4ccccc34)n2)c(OC)cc1N(C)CCN(C)C |  | storage stability | human plasma | 5 h, on ice, LLOQ level |  | recovery | 95.6%
Cc1ccc(Sc2ccccc2N2CCNCC2)c(C)c1 |  | measured: Nausea | healthy adult men | oral, 10 mg single dose |  | participants with TEAE | 0%
CCCCCCCCCCCC(=O)[O-].C[N+](C)(C)CCO |  | fluorescence probe | water | 37 °C |  | critical aggregation concentration | 14.1 ± 0.18 mmol/L
CC(C)C[C@H](NC(=O)CNC(=O)c1cc(Cl)ccc1Cl)B(O)O |  | measured: Hypophosphataemia | human newly diagnosed multiple myeloma | oral, dose not given, maintenance, grade 3, onset cycle 17 or later |  | treatment-emergent adverse events | 0%
O=C(c1nc2n(n1)[C@H](c1ccccc1)C[C@@H]2F)C1CC1 |  |  | human, fasted | oral, 75 mg single dose, mean |  | urinary excretion Ae(0-72 h) | 0.142 mg
NC(N)=NCCC[C@@H](N)C(=O)N[C@@H](CCCN=C(N)N)C(=O)N1CCC[C@H]1C(=O)N1C[C@H](O)C[C@H]1C(=O)NCC(=O)N[C@@H](Cc1cccs1)C(=O)N[C@@H](CO)C(=O)N1Cc2ccccc2C[C@@H]1C(=O)N1[C@H](C(=O)N[C@@H](CCCN=C(N)N)C(=O)O)C[C@@H]2CCCC[C@@H]21 |  | popPK full model estimate | human | subcutaneous, dose not given |  | central volume (Vc/F) | 20.7 L
COc1nnc2ccc(N3CCC(c4ccc(OCCN5CCN(C)C(=O)[C@H]5C)cc4)CC3)nn12 |  |  | human, plasma | oral, 30 mg once daily, multiple dose, monotherapy |  | terminal half-life | 3.73 h
C[C@@H](N)C1CCN(S(=O)(=O)c2cccc3cnccc23)CC1 |  |  | healthy volunteers, fasted, plasma | oral, 25 mg |  | Vz/F | 5500 L
CCCCOc1ccc([C@H]2CC[C@H](CCC)CC2)c(F)c1F |  |  | human mother-newborn pairs, maternal serum | female fetuses |  | median concentration | 5.19 ng/mL
CC[C@H](C)[C@H](NC(C)=O)C(=O)N[C@H]1CSSC[C@@H](C(=O)N[C@H](C(N)=O)[C@@H](C)O)NC(=O)[C@H](CCCNC(=N)N)NC(=O)[C@H](Cc2c[nH]cn2)NC(=O)[C@H](C)NC(=O)CNC(=O)[C@H](Cc2c[nH]c3ccccc23)NC(=O)[C@H](CC(=O)O)NC(=O)[C@H](CCC(N)=O)NC(=O)[C@H](Cc2c[nH]c3ccccc23)NC(=O)[C@H](C(C)C)NC1=O |  | RP-HPLC, C18 | 28% acetonitrile isocratic | pH 7.4 |  | retention factor | 2.668 ± 0.007
O=C(O)CNC(=O)c1ccco1 | THP-1 | pyroptotic LDH release |  | 2 µM, 40 min, added: LPS then nigericin |  | inhibition | -12.4%
CCc1c(-c2ccccc2)c(-c2ccccc2)nn1-c1ccccc1-c1cccc(OCC(=O)O)c1 |  |  | female Sprague-Dawley rat, uterus homogenate | oral, 10 mg/kg, 4 h |  | concentration | 305 ng/mL
CNCc1ccc(-c2[nH]c3cc(F)cc4c3c2CCNC4=O)cc1 |  | measured: Nausea | human patients | oral, 600 mg twice daily, grade 3 |  | patients with adverse event | 0%
CCN1/C(=C/C(C)=O)Sc2ccc(F)cc21 |  |  | cynomolgus monkey | oral, 30 mg/kg, 1 h post-dose |  | QRS duration | 36 ± 1 ms
CC(C)(C)c1ccc(O)c(CN(Cc2cc(C(C)(C)C)ccc2O)C2CCC(NC(N)=O)CC2)c1 (stereo not shown) |  |  | mouse plasma | 2000 ng/mL, 3 months, 4 °C, refrigerator storage |  | recovery | 96.81 ± 0.08%
[18F]c1ccc(-c2ccc3c(c2)[nH]c2ccncc23)cn1 |  | ex vivo biodistribution | B6SJL mouse, normal, bone | intravenous, 30 min |  | SUV | 0.903 ± 0.19
